Assay results from different studies.
Each line is one published result; not all experiments were run side by side. Several values in a cell are separate wells, animals, samples, runs or records.
Target: Serine/threonine-protein kinase PLK1 (PLK1, Homo sapiens, UniProt P53350)
Sequence of UniProt P53350 (whole entry, unmodified, looked up): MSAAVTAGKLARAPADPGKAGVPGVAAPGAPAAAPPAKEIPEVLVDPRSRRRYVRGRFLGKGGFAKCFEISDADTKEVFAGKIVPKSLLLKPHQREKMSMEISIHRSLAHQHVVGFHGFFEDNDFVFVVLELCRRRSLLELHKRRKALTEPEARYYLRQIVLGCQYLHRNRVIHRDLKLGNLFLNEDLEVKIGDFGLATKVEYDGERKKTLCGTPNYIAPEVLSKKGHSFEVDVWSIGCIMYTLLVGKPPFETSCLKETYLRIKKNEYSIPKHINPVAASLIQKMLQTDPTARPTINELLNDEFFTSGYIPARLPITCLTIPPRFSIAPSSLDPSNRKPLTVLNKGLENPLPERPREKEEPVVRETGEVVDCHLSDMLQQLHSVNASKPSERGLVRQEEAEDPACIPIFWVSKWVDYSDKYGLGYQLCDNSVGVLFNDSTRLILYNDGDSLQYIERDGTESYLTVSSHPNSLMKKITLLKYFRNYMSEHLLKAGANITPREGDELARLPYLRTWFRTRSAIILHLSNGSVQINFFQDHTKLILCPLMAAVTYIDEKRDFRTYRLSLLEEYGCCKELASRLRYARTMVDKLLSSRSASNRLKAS

| assay | system | conditions | scale | measurement | value | SMILES |
| --- | --- | --- | --- | --- | --- | --- |
| kinase activity, inhibitor | – | 1 µM | reference: untreated control | remaining activity | 126% | COc1c(OCCCN2CCOCC2)ccc2c1N=C(NC(=O)c1cnc(N)nc1)N1CCN=C21 |
| kinobead competition pulldown | HEK293/HCT116 lysate mixture | 10 µM, 1 h, 4 °C | lower = stronger competition | log2 LFQ intensity | 22 and 21.9 | N[C@H]1CC[C@H](Nc2nccc(-c3cccnc3Oc3ccc(NC(=O)NC4CC4)c4ccccc34)n2)CC1 |
| binding, competition with immobilised ligand | – | 0.2 µM | – | inhibition | -8.12% | COc1ccc(O)cc1-c1c[nH]c2ncc(-c3cncc(C(=O)N(C)C)c3)cc12 |
| kinase activity, inhibitor, ProQinase kinase profiling | – | 25 µM | reference: control | remaining activity | 105% and 109% | COCC12C(=O)NC3C4(C(OC)CC1O)C1CC5(O)C(OC)C(O)C(OC(C)=O)(C1C5OC(=O)c1ccccc1)C3(O)C(OC)C24 (stereo not shown) |
| enzyme activity, inhibitor | – | 10 µM | – | remaining activity | 108% | CN1C[C@@H](c2c[nH]c3cc(Br)ccc23)NC[C@@H]1c1c[nH]c2cc(Br)ccc12 |
| enzyme activity | – | 100 nM, human enzyme, with: 10 µM ATP | reference: untreated | remaining activity | 103% | O=C=[N][Ru-4]123([n]4c5ccc(O)cc5c5c6c(c7cc(F)c[n+]1c7c54)C(=O)NC6=O)[S+]1CC[S+]2CC[S+]3CC1 (stereo not shown) |
| enzyme activity, Dundee kinase panel | – | 10 µM | – | remaining activity | 83% | Cc1cccc(-c2ccc3nc(NC(=O)C4CCOCC4)nn3c2)c1 |
| enzyme activity, inhibitor | – | 10 µM | – | inhibition | 0.49% | COc1cc(-n2cc3cc(F)cc(C(N)=O)c3n2)cc(Cl)c1C1CC(O)(CCO)Cc2ccccc21 (stereo not shown) |
| enzyme activity, inhibitor | – | 0.25 µM | – | remaining activity | 65% | c1ccc2c(Nc3cc(C4CCC4)[nH]n3)nc(Nc3ccc4nc[nH]c4c3)nc2c1 |
| inhibitor | – | 1 µM | reference: control | remaining activity | 87% | COc1cc(Nc2nc(C)cc(-c3cnn4nc(OC)ccc34)n2)cc(C(F)(F)F)c1 |
| kinase activity | – | 0.1 µM | – | inhibition | 6% and 3% | C=CC(=O)Nc1cccc(-c2cnc3[nH]cc(C(=O)NC(C)(C)C)c3n2)c1 |
| cell-free assay, competition with immobilised ligand | – | 50 nM | – | remaining binding | 77% | CN1CCN(Cc2ccc(NC(=O)c3cccc(C#Cc4cnc(N)c5ncccc45)c3)cc2C(F)(F)F)CC1 |
| cell-free assay, competition with immobilised ligand | – | 10 µM | – | remaining binding | 100% | C=C1CCCCCCCCCC(CO)C1=O (stereo not shown) |

For quick reference, copied from above:
| assay | system | conditions | scale | measurement | value | SMILES |
| --- | --- | --- | --- | --- | --- | --- |
| enzyme activity, inhibitor | – | 0.25 µM | – | remaining activity | 65% | c1ccc2c(Nc3cc(C4CCC4)[nH]n3)nc(Nc3ccc4nc[nH]c4c3)nc2c1 |
